Measurements gathered from unrelated publications.
Compare with care: the assays were run in different laboratories. pEC50: −log10 of the molar value. ≈ marks a conversion by molar mass, not a printed value.

By UniProt entry, the sequences of proteins in these tests, tags left out.
UniProt Q9UM73, whole entry T1151M, looked up: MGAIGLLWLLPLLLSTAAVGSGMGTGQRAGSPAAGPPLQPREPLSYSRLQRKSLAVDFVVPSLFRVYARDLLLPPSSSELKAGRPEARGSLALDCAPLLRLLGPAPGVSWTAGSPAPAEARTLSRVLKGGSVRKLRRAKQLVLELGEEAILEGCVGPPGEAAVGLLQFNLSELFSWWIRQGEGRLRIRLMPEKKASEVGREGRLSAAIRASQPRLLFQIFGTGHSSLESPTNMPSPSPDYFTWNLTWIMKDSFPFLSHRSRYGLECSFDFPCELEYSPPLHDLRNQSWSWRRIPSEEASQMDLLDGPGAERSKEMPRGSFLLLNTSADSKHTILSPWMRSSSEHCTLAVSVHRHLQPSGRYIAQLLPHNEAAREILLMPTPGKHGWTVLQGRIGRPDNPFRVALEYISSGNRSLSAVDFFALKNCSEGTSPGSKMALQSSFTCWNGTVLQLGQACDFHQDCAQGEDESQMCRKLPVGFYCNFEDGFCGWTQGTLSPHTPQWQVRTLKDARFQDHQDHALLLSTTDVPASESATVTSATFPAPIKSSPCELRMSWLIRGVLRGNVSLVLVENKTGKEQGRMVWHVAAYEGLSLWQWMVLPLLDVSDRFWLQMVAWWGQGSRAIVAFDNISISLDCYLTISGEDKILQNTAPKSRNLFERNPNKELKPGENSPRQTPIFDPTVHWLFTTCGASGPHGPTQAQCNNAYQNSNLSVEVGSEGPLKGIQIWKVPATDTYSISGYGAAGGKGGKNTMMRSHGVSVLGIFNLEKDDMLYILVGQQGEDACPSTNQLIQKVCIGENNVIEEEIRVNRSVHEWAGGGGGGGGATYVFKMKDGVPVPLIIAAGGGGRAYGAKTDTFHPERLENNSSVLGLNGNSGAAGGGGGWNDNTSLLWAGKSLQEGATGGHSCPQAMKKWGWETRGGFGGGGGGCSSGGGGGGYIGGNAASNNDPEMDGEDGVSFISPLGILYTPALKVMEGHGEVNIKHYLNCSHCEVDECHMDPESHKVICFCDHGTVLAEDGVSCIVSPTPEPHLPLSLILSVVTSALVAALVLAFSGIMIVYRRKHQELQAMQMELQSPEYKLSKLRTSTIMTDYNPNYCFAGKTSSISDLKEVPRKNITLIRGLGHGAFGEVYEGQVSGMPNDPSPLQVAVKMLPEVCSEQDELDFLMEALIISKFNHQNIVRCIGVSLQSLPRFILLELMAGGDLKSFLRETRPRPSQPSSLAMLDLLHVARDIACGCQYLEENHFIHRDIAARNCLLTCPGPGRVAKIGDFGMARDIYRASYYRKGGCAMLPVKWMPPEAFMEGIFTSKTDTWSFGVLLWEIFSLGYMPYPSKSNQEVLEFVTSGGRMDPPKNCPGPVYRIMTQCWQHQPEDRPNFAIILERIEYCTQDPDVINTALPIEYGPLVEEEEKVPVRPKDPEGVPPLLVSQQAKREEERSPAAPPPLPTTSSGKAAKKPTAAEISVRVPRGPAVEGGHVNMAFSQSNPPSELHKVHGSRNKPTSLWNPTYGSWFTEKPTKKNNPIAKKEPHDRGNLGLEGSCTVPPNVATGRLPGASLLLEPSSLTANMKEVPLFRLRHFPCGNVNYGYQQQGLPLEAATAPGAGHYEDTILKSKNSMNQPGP
UniProt P51812, whole entry: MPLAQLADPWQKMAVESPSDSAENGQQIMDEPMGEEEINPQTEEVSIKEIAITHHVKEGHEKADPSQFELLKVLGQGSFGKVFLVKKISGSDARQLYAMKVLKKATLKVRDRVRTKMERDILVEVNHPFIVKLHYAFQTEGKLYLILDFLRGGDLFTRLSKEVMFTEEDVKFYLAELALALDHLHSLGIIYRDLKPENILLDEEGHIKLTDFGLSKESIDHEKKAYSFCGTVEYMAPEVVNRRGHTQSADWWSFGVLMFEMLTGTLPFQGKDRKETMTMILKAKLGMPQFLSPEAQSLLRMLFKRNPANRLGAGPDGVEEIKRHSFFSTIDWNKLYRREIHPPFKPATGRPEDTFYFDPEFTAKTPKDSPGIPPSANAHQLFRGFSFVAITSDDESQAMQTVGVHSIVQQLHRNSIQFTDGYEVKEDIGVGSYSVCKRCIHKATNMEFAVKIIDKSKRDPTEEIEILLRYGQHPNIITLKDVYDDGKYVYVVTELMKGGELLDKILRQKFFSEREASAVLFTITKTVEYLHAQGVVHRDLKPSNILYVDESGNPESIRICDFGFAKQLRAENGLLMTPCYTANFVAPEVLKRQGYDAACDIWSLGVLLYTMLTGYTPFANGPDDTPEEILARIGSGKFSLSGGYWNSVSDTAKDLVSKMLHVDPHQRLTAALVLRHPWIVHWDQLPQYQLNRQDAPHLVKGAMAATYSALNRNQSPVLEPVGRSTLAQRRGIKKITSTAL

O=[N+]([O-])c1cn2c(n1)OC[C@@H](OCc1ccc(OC(F)(F)F)cc1)C2  MIC50 (Mycobacterium bovis; BCG Tac^r9.1, thyA S125P missense; TA-C-resistant thyA mutant): 0.2 µM (≈ 0.0719 µg/mL)
CCN1CCN(Cc2ccc(NC(=O)c3ccc(C)c(/C=C/c4cnc5[nH]ccc5c4OC)c3)cc2C(F)(F)F)CC1  log2 fold change (ALK tyrosine kinase receptor (ALK, Homo sapiens, UniProt Q9UM73, T1151M); inhibitor, cell-based kinome screen; 5 µM; baseline: no inhibitor): 0.692
CCCOc1ccc2nc3ccc(=O)cc-3oc2c1  MIC90 (Mycobacterium tuberculosis; mc2 6206 PA-824-resistant ddn mutant; 7 days): 4.8 µM (≈ 1.23 µg/mL)
O=[N+]([O-])c1ccc(N2CCN(c3ccc([N+](=O)[O-])cc3[N+](=O)[O-])CC2)c([N+](=O)[O-])c1  MIC (Pseudomonas aeruginosa; ATCC 29853): > 500 µg/mL
NNC(=O)c1ccncc1  MIC50 (Mycobacterium bovis; BCG Tac^r7.1, thyA A148E missense; TA-C-resistant thyA mutant): 0.4 µM (≈ 0.0549 µg/mL)
Cc1cccc(-c2nsc(=O)o2)c1  reduction in viable count (Mycobacterium bovis BCG; 25 µM): 0.8 log CFU
CNC(=O)CCCCC1CCSS1 (centres unmarked)  pEC50 (Plasmodium falciparum; parasite growth; infected erythrocytes; blood stage): 4.82
CO[C@H]1/C=C/O[C@@]2(C)Oc3c(C)c(O)c4c(O)c(c(/C=N/N5CCN(C)CC5)c(O)c4c3C2=O)NC(=O)/C(C)=C\C=C\[C@H](C)[C@H](O)[C@@H](C)[C@@H](O)[C@@H](C)[C@H](OC(C)=O)[C@@H]1C  MIC50 (Mycobacterium bovis; BCG Tac^r7.2, thyA mutant; TA-C-resistant thyA mutant): 0.0016 µM (≈ 0.00132 µg/mL)
CC(C)COc1ccc2nc3ccc(=O)cc-3oc2c1  MIC90 (Mycobacterium tuberculosis; mc2 6206 PA-824-resistant ddn mutant; 7 days): 8.4 µM (≈ 2.26 µg/mL)
CC#C/C(=N\OC[C@H]1COCCN1)c1ccc2ncnc(Nc3ccc(OCc4cccc(F)c4)c(Cl)c3)c2c1  inhibition (Ribosomal protein S6 kinase alpha-3 (RPS6KA3, Homo sapiens, UniProt P51812); kinase activity; 10 µM): -0.9%
Nc1ccc(C(=O)O)c(O)c1  MIC50 (Mycobacterium bovis; BCG Tac^r10.1, thyA H147Y missense; TA-C-resistant thyA mutant): > 100 µM
COCOc1ccc2nc3ccc(=O)c(I)c-3oc2c1  MIC90 (Mycobacterium tuberculosis; mc2 6206 PA-824-resistant ddn mutant; 7 days): 13 µM (≈ 4.98 µg/mL)
CC1(C)CCC(Cc2cc(O)c(-c3ccccc3)c(=O)[nH]2)CC1  rapid killing concentration (Mycobacterium tuberculosis; bactericidal activity; replicating): > 0.2 µM
O=c1ccc2ccc(OCc3ccc([N+](=O)[O-])o3)cc2o1  MIC90 (Mycobacterium tuberculosis; mc2 6206 clofazimine-resistant fbiC mutant; 7 days): > 256 µM
CCC(C)C1NC(=O)/C(=C(/C)O)C1=O (centres unmarked)  onset of alkalinization (Arabidopsis thaliana; apo-pHusion imaging, refers to: apoplastic pH; elongating root cells; 10 µM): ~90 s
O=C(O)COc1ccc2nc3ccc(=O)cc-3oc2c1  MIC90 (Mycobacterium tuberculosis; mc2 6206 clofazimine-resistant fbiC mutant; 7 days): > 256 µM
COc1ccc(Nc2cc(C)c3cc(NC(=O)c4ccc(N(C)C)cc4)ccc3n2)cc1  inhibition (vesicular stomatitis virus; viral replication; VSV-eGFP; concentration not given): 5%

A few entries again:
CCC(C)C1NC(=O)/C(=C(/C)O)C1=O (centres unmarked)  onset of alkalinization (Arabidopsis thaliana; apo-pHusion imaging, refers to: apoplastic pH; elongating root cells; 10 µM): ~90 s
Cc1cccc(-c2nsc(=O)o2)c1  reduction in viable count (Mycobacterium bovis BCG; 25 µM): 0.8 log CFU
O=[N+]([O-])c1cn2c(n1)OC[C@@H](OCc1ccc(OC(F)(F)F)cc1)C2  MIC50 (Mycobacterium bovis; BCG Tac^r9.1, thyA S125P missense; TA-C-resistant thyA mutant): 0.2 µM (≈ 0.0719 µg/mL)
